Experimental data gathered from unrelated publications.
Lines come from different studies, so protocols differ. ± marks the error that the study gave.
DCPS: m7GpppX diphosphatase (DCPS, Homo sapiens, UniProt Q96C86)
T1: FMN riboswitch G8A/G9A/G74A/G96A (Lactobacillus plantarum); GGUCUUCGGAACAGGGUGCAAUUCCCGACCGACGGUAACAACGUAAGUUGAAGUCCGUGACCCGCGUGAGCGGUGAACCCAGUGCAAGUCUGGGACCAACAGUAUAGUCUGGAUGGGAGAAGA

CO[C@@H]1[C@H](O)[C@@H](COP(=O)(O)OP(=O)([O-])C(Cl)(Cl)P(=O)(O)OP(=O)(O)OC[C@H]2O[C@@H](n3cnc4c(=O)[nH]c(N)nc43)[C@H](O)[C@@H]2O)O[C@H]1n1c[n+](C)c2c(O)nc(N)nc21 — hydrolysis (DCPS; substrate, HPLC; 0.04 mM, 60 min, 37 °C): 0%
Cc1c(C(=O)Nc2ccn(C)n2)ncn1Cc1cccc(C(F)(F)F)c1 — pS129-positive proteinase K-resistant granules (immunohistochemistry, refers to: human αS aggregates; human WT αS transgenic mouse, cortex; dose not given; relative to: placebo): decreased
CC(=O)N[C@H](CCCNC(=N)N)C(=O)N[C@@H](Cc1ccc(O)cc1)C(=O)N[C@@H](CCCNC(=N)NC(=O)NCCCCN)C(=O)N[C@@H](CC(C)C)C(=O)N[C@@H](CCCNC(=N)N)C(=O)N[C@@H](Cc1ccc(O)cc1)C(N)=O — intrinsic activity (Neuropeptide Y receptor type 4 (NPY4R, Homo sapiens, UniProt P50391); β-arrestin-1 recruitment, agonist; HEK293T; concentration not given, unit not given; relative to: 1 µM human pancreatic polypeptide): 0.45
NS(=O)(=O)Nc1ncnc(OCCOc2ncc(Br)cn2)c1-c1ccc(Br)cc1 — Km (M6 formation; female Sprague-Dawley rat, liver microsomes; 50 mg/kg daily for 4 weeks): 3.5 ± 1.5 µM
Cc1nn(-c2ccc(S(=O)(=O)N[C@H](CO)CC(C)C)cc2)c2nn3nnnc3nc12 — apoptotic cells (PC-3; PI/Hoechst staining; 1 µM, 24 h): 9 ± 1.4%
Cc1cc2nc3c(=O)[nH]c(=O)nc-3n(CCO)c2cc1C — Kd (T1, FMN riboswitch G8A/G9A/G74A/G96A (Lactobacillus plantarum); ITC; pH 7.5, 25 °C, NaCl 100 mM): 54 nM
Cc1cc(-c2ccc(NC(=O)[C@H](CCCCNC(=O)CCOCCOCCC(=O)N[C@H](Cc3ccccc3)C(=O)N[C@H]3CSSC[C@@H](C(=O)N[C@H](C(=O)O)[C@@H](C)O)NC(=O)[C@H]([C@@H](C)O)NC(=O)[C@H](CCCCN)NC(=O)[C@@H](Cc4c[nH]c5ccccc45)NC(=O)[C@H](Cc4ccc(O)cc4)NC3=O)NC(=O)CN3CCN(CC(=O)O)CCN(CC(=O)O)CCN(CC(=O)O)CC3)c(C)c2)ccc1N=Nc1ccc2c(S(=O)(=O)O)cc(S(=O)(=O)O)c(N)c2c1O [lutetium-177 labelled] — effective half-life (patients with metastatic NETs, liver metastases; intravenous): 145 ± 30.9 h
CC(=O)[O-].O.O.O.O.[Ni+2].[O-]c1ccc(Br)cc1C=NCCN1CCOCC1 — Gibbs free energy change (Albumin (ALB, Bos taurus, UniProt P02769); UV absorption titration): -5.79 kcal/mol
CC(C)[C@H](NC(=O)[C@@H]1CCC(=O)NCCC(=O)NCCCC[C@H](NC(=O)[C@H](CCC(N)=O)NC(=O)[C@@H](NC(=O)[C@H](Cc2c[nH]c3ccccc23)NC(=O)[C@@H]2CCCN2C(=O)[C@@H]2CCCN2C(=O)[C@H](Cc2ccccc2)NC(=O)[C@H](CO)NC(=O)CNC(=O)[C@@H](N)CSSC[C@H](NC(=O)[C@H](CCCNC(=N)N)NC(=O)[C@H](CCCNC(=N)N)NC(=O)[C@H](CCCNC(=N)N)NC(=O)[C@H](CCCNC(=N)N)NC(=O)[C@H](CCCNC(=N)N)NC(=O)[C@@H](N)CCCNC(=N)N)C(=O)O)C(C)C)C(=O)N[C@@H]([C@@H](C)O)C(=O)N1)C(=O)O — kon (Disks large homolog 4, PDZ3 domain (Homo sapiens, UniProt P78352); binding, surface plasmon resonance; pH 7.5, 25 °C): 261000 M⁻¹ s⁻¹
CC(C)(C)S(=O)(=O)Cc1nc(-c2ccc(C(F)(F)F)cc2)cs1 — enzyme activity (Trypanothione synthetase (Trypanosoma brucei, UniProt Q586P2); inhibitor; concentration not given): inactive
O=Cc1c(O)ccc2ccccc12 — log2 fold change (HUVEC; RNA sequencing, refers to: MCM10; 75 µM, 24 h; relative to: DMSO): -3.78
CNc1ccccc1C(=O)O[C@H]1C[C@H](n2cnc3c(N)ncnc32)O[C@@H]1COP(=O)(O)OP(=O)(O)O — donor-acceptor distance (Unconventional myosin-Va (Gallus gallus, UniProt Q02440, D297C/G292C/I296C/S293C/V295G); FRET; compound complex; 25 °C, together with: 4 mM EDTA): 24.9 Å
CCCCCCOc1ccc(C(=O)OCCN2CC=CCC2)cc1 — cooperativity factor (Muscarinic acetylcholine receptor M4 (CHRM4, Homo sapiens, UniProt P08173); antagonist, refers to: inositol phosphates; CHO co-expressing G15; together with: carbachol): 0.001 ± 0.0002
BP(=O)(OP(=O)([O-])OC[C@H]1O[C@@H](n2c[n+](C)c3c(O)nc(N)nc32)[C@H](O)[C@@H]1O)OP(=O)(O)OC[C@H]1O[C@@H](n2cnc3c(=O)[nH]c(N)nc32)[C@H](O)[C@@H]1O (stereo partly drawn) — cleavage (DCPS; hydrolysis by DcpS, substrate, HPLC; 15 µM, 10 min, pH 7.6, 20 °C, enzyme 200 nM): 3%
CC(C)(C)OC(=O)N1CCN(CC(OCc2ccc3ccccc3c2)c2ccc(Cl)cc2Cl)CC1 (stereo not drawn) — activity vs control (Serine/threonine-protein kinase ULK1 (ULK1, Homo sapiens, UniProt O75385); enzyme activity, inhibitor, ADP detection; 0.1 µM): 154%
